Experimental data collected from several papers.

Structure (SMILES) | cell line | test | setting | scale | inhibition
CC1=CCC23OC2(C)CCC2C(C[N+](C)(C)C)C(=O)OC2C13.[I-] (stereo not drawn) | TK-10 | cell growth or viability, SRB | 8.3 µM |  | 81.4%
CC(C)[C@@H]1CC[C@@H](C)C[C@H]1OC(=O)COC(=O)Cn1cnc2c1c(=O)n(C)c(=O)n2C | RAW264.7 | NO release, inhibitor, Griess | 25 µM, LPS-stimulated |  | 79.3%
COc1cc(-c2oc3cc(OC)c(OC)c(O)c3c(=O)c2OC)ccc1O | human Neutrophil | elastase release, inhibitor | 10 µM |  | 65.8%
COCCOCCOCCOc1ccc(-n2cc(CCCN(CCNc3ccnc4cc(Cl)ccc34)C(=O)CCC(=O)OC3OC4OC5(C)CCC6C(C)CCC(C3C)C46OO5)nn2)cc1 (stereo not drawn) | K562 | cell growth or viability, resazurin | 10 µM, 48 h |  | 47.3%
C=CCc1ccc(OC(=O)COC(=O)Cn2cnc3c2c(=O)n(C)c(=O)n3C)c(OC)c1 | RAW264.7 | ELISA, item: IL-6 | 1 µM, together with: LPS | baseline: LPS alone | 31.3%
C#CCCCNCCNc1ccnc2cc(Cl)ccc12 | K562 | cell growth or viability, resazurin | 10 µM, 48 h |  | 5.5%
COc1cc(-c2oc3cc(O)c(OC)c(O)c3c(=O)c2OC)ccc1O | human Neutrophil | elastase release, inhibitor | 10 µM |  | 48.2%
CC12CCC3(CCC(=O)OCCNc4ccnc5cc(Cl)ccc45)C(C)(OOC3(C)O1)O2 | K562 | cell growth or viability, resazurin | 10 µM, 48 h |  | 6.5%
COc1ccc(CCN2CCC[C@H](CN3CCc4cc(OC)c(OC)cc4CC3=O)C2)cc1OC | mouse VTA dopamine neurons | firing rate, cell-attached recording | 750 µM, 3 min |  | 61.8%
C=C(C(=O)OC)[C@@H]1CC[C@@]2(C)CCC(=O)C(C)=C2C1 | human Neutrophil | elastase release, inhibitor | 10 µM |  | 0.7%
C#CCCCN(CCNc1ccnc2cc(Cl)ccc12)C(=O)CCC(=O)O[C@@H]1O[C@@H]2O[C@@]3(C)CC[C@H]4[C@H](C)CCC([C@H]1C)[C@@]24OO3 (stereo partly drawn) | K562 | cell growth or viability, resazurin | 10 µM, 48 h |  | 48.5%
COC[C@H](NC(C)=O)C(=O)NCc1ccccc1 | CAD | sodium current | 100 µM, holding potential -80 mV | baseline: DMSO | no inhibition
C=C(C(=O)O)[C@@H]1CC[C@@]2(C)CCC(=O)C(C)=C2C1 | human Neutrophil | elastase release, inhibitor | 10 µM |  | 3.89%
CC12OOC(C)(OO1)C2CCC(=O)OCCNc1ccnc2cc(Cl)ccc12 (stereo not drawn) | K562 | cell growth or viability, resazurin | 10 µM, 48 h |  | 82.6%
CC1=C2[C@@H](O)[C@H](C(=O)O)CC[C@@]2(C)CCC1=O | human Neutrophil | superoxide release, inhibitor, absorbance | 10 µM |  | 12.1%
CC[C@H](C)[C@H](NC(C)=O)C(=O)N[C@@H](CCCNC(=N)N)C(=O)N[C@@H](CC(C)C)C(=O)N[C@@H](CCC(N)=O)C(=O)N[C@H](C(=O)N[C@@H](CO)C(=O)N[C@@H](CC(N)=O)C(=O)N1CCC[C@H]1C(=O)N[C@@H](Cc1ccc(O)cc1)C(=O)N[C@@H](CC(C)C)C(=O)N[C@@H](CCCCN)C(=O)N[C@@H](Cc1ccccc1)C(=O)N[C@H](C(=O)N1CCC[C@H]1C(=O)N[C@@H](CC(C)C)C(=O)N[C@@H](CCCCN)C(=O)N[C@@H](CCCNC(=N)N)C(=O)N[C@@H](C)C(=O)N[C@H](C(=O)N[C@@H](Cc1c[nH]c2ccccc12)C(=O)N[C@@H](CC(C)C)C(=O)N[C@H](C(=O)N[C@@H](CCCCN)C(N)=O)[C@@H](C)CC)[C@@H](C)CC)[C@@H](C)CC)[C@@H](C)CC | human cells | total IgG production | concentration not given |  | ≥ 50%
CC1CCC(C(C)C)C(OC(=O)CSc2nnc(Cn3cnc4c3c(=O)n(C)c(=O)n4C)o2)C1 (stereo not drawn) | RAW264.7 | NO release, inhibitor, Griess | 25 µM, LPS-stimulated |  | 69.6%
C=C(C(=O)O)[C@@H]1CC[C@@]2(C)CCC(=O)C(C)=C2[C@H]1O | human Neutrophil | elastase release, inhibitor | 10 µM |  | 5.89%

Excerpt of the above:
Structure (SMILES) | cell line | test | setting | scale | inhibition
COc1ccc(CCN2CCC[C@H](CN3CCc4cc(OC)c(OC)cc4CC3=O)C2)cc1OC | mouse VTA dopamine neurons | firing rate, cell-attached recording | 750 µM, 3 min |  | 61.8%
CC12OOC(C)(OO1)C2CCC(=O)OCCNc1ccnc2cc(Cl)ccc12 (stereo not drawn) | K562 | cell growth or viability, resazurin | 10 µM, 48 h |  | 82.6%
